Measured values collected from several papers.
Compare with care: the assays were run in different laboratories. “And” joins repeats or separate records; there may be more than shown.
Target: Serine/threonine-protein kinase 38-like (STK38L, Homo sapiens, UniProt Q9Y2H1)
UniProt Q9Y2H1, sequence (whole entry, looked up): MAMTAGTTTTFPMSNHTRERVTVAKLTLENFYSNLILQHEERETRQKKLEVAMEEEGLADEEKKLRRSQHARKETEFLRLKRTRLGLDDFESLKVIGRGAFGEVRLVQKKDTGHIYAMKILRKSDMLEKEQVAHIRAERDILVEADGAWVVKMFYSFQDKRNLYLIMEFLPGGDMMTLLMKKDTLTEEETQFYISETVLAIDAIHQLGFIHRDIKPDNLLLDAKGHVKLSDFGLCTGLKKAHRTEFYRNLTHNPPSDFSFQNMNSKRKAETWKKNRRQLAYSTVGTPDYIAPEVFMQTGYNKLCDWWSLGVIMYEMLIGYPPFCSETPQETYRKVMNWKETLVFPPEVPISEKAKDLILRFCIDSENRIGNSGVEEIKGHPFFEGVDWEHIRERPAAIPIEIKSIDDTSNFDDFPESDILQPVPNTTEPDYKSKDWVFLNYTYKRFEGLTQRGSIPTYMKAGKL

SMILES = CCn1cc(C(=O)O)c(=O)c2c(N)c(F)c(NC3CCCCC3)cc21; assay = kinase activity; setting = 0.1 µM, added: ATP at Km; endpoint = inhibition; result = -17.4%
SMILES = Nc1ncc2c(n1)-c1c([nH]c3ccc(C4=CCOCC4)cc13)CCC2; assay = binding, competition with immobilised ligand; setting = 1 µM; endpoint = remaining binding; result = 89%
SMILES = Cc1ccc(C(=O)Nc2ccc(CN3CCN(C)CC3)c(C(F)(F)F)c2)cc1C#Cc1cnc2cccnn12; assay = target engagement, NanoBRET; test system = human cells; endpoint = upper asymptote; result = 7220
SMILES = N[C@H]1CC[C@H](Nc2nccc(-c3cccnc3Oc3ccc(NC(=O)NC4CC4)c4ccccc34)n2)CC1; assay = kinobead competition pulldown; test system = HEK293/HCT116 lysate mixture; setting = 10 µM, 1 h, 4 °C; scale = lower = stronger competition; endpoint = log2 LFQ intensity; result = 22.2 and 22 and 22.1
SMILES = CC(C)=CC1OC(C)(C)C2C=C3C(=O)C(Cl)=CC(O)C3C3C(O)C4OC4C(=O)C132 (centres unmarked); assay = cell-free assay, competition with immobilised ligand; setting = 10 µM; endpoint = remaining binding; result = 86%
SMILES = CNC(=O)C[C@H](Cc1ccc(C#N)cc1)NC(=O)c1cc(-c2ccc(CN[C@H](C)c3ccc(C)cc3)o2)ccc1Cl; assay = enzyme activity, inhibitor; setting = 1 µM; endpoint = activity vs control; result = 85%
SMILES = Cc1cccc(O[C@H]2CCC[C@@H](C(C)CNCc3ccncc3)C2)c1 (relative stereo); assay = enzyme activity; setting = 1 µM; endpoint = inhibition; result = 2%
SMILES = O=C(Cc1ccc(OCc2ccccc2)cc1)NC1(C(=O)O)CCN(C(=O)c2ccc(-c3cccc(Cl)c3)cc2)CC1; assay = enzyme activity, inhibitor; setting = 10 µM; endpoint = activity vs control; result = 97%
SMILES = NC(=O)[C@@H](O)C[C@H]1CCc2sc3ncnc(O[C@H]4CC[C@H](N5CCOCC5)CC4)c3c21; assay = enzyme activity, inhibitor; setting = 10 µM; endpoint = inhibition; result = 6%
SMILES = CN1CC[C@@H](COc2cnc(C#N)cc2-c2ccn3nc(NC(=O)C4CC4)cc3c2)C1; assay = enzyme activity, inhibitor; setting = 1 µM; endpoint = inhibition; result = 10%
SMILES = CN1CCN(Cc2ccc(-c3ccc(CO[C@H]4CCC[C@@H]4NC(=O)c4cc(-c5cnn(C)c5)cnc4N)cc3)cc2)CC1; assay = enzyme activity, inhibitor; setting = 0.1 µM; endpoint = inhibition; result = 28%
SMILES = Nc1ncc(-c2cc(-c3cnn(CC(F)(F)F)c3)ncc2F)nc1C(=O)NC1CNCC(F)C1 (centres unmarked); assay = enzyme activity; setting = 1 µM; scale = baseline: DMSO control; endpoint = remaining activity; result = 97.3%
SMILES = CNC(=O)C1CCN(c2cc(C)c(F)cc2NC(=O)c2ccc(-c3cc(O)ccc3C)c(C)c2)CC1; assay = binding, competition with immobilised ligand; setting = 1 µM; endpoint = remaining binding; result = 97%
SMILES = CCN1CCN(Cc2ccc(C(=O)Nc3ccc(C)c(NCc4cnc5[nH]ccc5c4OC)c3)cc2C(F)(F)F)CC1; assay = binding, competition with immobilised ligand; setting = 1 µM; endpoint = remaining binding; result = 93%

Repeated from above:
SMILES = CCn1cc(C(=O)O)c(=O)c2c(N)c(F)c(NC3CCCCC3)cc21; assay = kinase activity; setting = 0.1 µM, added: ATP at Km; endpoint = inhibition; result = -17.4%
SMILES = Nc1ncc2c(n1)-c1c([nH]c3ccc(C4=CCOCC4)cc13)CCC2; assay = binding, competition with immobilised ligand; setting = 1 µM; endpoint = remaining binding; result = 89%
